# Results pooled from the literature.
# Protocols differ between the studies behind these lines. ± gives the spread as reported.
# GABA-A receptor; alpha-1/beta-3/gamma-2: GABA-A receptor; alpha-1/beta-3/gamma-2 (Homo sapiens, UniProt P14867+P18507+P28472)
# Sequence of UniProt P28472 (whole entry, looked up): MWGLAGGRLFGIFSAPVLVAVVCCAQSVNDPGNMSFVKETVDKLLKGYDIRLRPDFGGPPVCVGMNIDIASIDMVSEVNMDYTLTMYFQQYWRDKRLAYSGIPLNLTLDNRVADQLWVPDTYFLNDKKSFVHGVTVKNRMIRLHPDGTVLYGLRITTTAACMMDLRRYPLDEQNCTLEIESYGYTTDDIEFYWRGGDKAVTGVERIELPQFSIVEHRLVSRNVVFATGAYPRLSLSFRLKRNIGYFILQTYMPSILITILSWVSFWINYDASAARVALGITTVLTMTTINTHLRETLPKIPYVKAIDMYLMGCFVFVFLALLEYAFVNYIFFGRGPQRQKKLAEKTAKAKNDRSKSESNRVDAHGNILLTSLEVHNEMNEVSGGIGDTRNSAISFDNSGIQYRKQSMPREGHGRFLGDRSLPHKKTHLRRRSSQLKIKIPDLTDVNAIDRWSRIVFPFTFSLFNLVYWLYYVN
# Sequence of UniProt P14867 (whole entry, looked up): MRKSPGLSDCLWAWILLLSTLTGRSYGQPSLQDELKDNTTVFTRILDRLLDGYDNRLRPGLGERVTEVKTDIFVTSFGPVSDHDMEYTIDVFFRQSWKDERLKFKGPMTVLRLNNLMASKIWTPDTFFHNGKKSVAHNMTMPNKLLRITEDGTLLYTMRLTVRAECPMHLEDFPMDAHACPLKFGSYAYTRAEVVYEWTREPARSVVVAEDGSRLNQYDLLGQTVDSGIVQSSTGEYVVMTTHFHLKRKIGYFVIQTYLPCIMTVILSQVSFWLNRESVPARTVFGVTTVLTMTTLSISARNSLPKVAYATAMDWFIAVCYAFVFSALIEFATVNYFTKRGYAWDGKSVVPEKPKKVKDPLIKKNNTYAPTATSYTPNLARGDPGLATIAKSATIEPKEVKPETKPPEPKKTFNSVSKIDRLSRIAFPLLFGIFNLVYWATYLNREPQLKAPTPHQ
# Sequence of UniProt P18507 (whole entry, looked up): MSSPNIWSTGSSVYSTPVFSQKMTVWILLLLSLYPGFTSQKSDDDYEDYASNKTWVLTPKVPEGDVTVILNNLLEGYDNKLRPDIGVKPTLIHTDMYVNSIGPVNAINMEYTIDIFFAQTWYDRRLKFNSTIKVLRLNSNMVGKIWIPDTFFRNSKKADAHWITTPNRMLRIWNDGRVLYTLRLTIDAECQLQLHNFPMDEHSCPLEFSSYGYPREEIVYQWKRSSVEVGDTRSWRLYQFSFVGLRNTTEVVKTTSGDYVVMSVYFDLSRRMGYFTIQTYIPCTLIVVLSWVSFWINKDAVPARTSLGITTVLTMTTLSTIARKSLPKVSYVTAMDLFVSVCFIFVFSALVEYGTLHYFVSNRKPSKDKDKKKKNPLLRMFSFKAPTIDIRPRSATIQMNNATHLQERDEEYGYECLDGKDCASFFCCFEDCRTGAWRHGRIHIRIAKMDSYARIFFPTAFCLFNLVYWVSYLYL
# Kir3.1/Kir3.2: Kir3.1/Kir3.2 (Homo sapiens, UniProt P48051+P48549)
# Sequence of UniProt P48051 (whole entry, looked up): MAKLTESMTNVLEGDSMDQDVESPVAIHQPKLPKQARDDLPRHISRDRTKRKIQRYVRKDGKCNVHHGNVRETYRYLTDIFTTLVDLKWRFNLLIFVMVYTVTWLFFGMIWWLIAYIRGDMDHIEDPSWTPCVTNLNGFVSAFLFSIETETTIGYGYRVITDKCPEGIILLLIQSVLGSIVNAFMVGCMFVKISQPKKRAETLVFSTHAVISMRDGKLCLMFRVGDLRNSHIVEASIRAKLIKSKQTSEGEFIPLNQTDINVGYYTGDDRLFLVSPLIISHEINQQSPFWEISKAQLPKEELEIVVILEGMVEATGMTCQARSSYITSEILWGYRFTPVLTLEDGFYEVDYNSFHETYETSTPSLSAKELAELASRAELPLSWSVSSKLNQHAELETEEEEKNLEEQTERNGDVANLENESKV
# Sequence of UniProt P48549 (whole entry, looked up): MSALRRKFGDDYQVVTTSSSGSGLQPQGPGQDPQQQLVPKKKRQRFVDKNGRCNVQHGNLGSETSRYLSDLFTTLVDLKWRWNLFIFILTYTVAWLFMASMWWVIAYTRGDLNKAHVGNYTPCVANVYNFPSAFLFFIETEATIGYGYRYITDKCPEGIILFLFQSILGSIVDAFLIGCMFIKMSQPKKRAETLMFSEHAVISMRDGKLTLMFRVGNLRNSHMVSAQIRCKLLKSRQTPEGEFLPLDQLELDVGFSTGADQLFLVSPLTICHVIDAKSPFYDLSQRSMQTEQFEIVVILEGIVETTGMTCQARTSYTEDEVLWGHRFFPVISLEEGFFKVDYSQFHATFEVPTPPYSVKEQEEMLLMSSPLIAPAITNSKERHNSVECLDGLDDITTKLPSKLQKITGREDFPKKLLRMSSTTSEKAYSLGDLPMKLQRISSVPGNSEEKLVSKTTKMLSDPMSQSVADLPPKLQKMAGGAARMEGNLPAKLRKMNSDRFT
# Sequence of UniProt P35414 (whole entry, looked up): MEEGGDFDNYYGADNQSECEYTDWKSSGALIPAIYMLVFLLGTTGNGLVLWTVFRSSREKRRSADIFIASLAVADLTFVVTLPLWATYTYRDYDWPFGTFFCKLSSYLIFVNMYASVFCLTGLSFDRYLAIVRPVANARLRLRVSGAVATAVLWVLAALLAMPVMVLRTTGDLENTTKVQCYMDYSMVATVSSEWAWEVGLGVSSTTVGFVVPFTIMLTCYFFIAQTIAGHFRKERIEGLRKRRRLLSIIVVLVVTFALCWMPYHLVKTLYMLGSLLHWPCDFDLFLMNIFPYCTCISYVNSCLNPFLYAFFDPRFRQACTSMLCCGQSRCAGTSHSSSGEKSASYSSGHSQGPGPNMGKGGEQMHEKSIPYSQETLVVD
# Sequence of UniProt P34995 (whole entry, unmodified, looked up): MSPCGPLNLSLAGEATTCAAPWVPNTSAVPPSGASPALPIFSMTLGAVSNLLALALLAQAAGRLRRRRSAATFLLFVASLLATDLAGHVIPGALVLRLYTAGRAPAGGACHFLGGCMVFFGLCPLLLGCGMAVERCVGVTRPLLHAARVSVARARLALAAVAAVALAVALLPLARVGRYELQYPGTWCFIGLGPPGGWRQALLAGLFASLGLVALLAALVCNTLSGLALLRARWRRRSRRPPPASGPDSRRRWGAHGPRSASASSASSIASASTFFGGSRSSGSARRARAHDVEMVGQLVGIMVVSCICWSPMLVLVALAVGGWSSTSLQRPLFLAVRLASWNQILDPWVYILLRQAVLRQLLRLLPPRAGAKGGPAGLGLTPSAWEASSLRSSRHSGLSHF
# Sequence of UniProt Q13258 (whole entry, looked up): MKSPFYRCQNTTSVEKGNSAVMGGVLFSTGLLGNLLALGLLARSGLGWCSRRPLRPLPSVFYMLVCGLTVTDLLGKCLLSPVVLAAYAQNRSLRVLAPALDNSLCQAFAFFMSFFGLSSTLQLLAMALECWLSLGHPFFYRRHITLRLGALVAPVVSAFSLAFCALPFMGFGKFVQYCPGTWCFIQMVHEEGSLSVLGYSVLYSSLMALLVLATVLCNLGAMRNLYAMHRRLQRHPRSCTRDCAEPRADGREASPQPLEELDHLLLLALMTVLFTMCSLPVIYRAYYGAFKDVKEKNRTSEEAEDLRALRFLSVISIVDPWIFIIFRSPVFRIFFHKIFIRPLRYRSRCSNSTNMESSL
Structure (SMILES),target,assay,system,setting,scale,Emax
CCOCc1nc(O)c(-c2nnc(Cc3ccc(Cl)cn3)o2)c(O)c1-c1c(OC)cccc1OC,"Apelin receptor (APLNR, Homo sapiens, UniProt P35414)","Gαi1 activation, agonist, BRET biosensor",HEK293,,,93 ± 6%
N=C1NC(=O)C2(CCc3ccc(F)cc32)C(=O)N1 (stereo not shown),GABA-A receptor; alpha-1/beta-3/gamma-2,,,300 µM,,-2%
c1ccc([C@H]2CN3CCSC3=N2)cc1,"acetylcholine-gated chloride channel (Haemonchus contortus, UniProt A0A219KWM7)","ion current, agonist, two-electrode voltage clamp","Haemonchus contortus, Xenopus oocytes",together with: acetylcholine 500 µM,baseline: acetylcholine response,37%
CCCCC[C@H](O)/C=C/[C@H]1[C@H](O)CC(=O)[C@@H]1C/C=C\CCCC(=O)O,"Prostaglandin E2 receptor EP1 subtype (PTGER1, Homo sapiens, UniProt P34995, R63A)","IP1 accumulation, agonist",AD293,"1 h, EP1 R63A mutant",,76.1 ± 5.09%
O=C(COc1ccc(Cl)cc1Cl)Nc1cc(C2CCC2)nn1C1CCC(F)(F)CC1,Kir3.1/Kir3.2,"thallium flux, activator",HEK293,,baseline: standard compound,30%
CN=C1NC(=O)C2(CCc3ccccc32)C(=O)N1 (stereo not shown),GABA-A receptor; alpha-1/beta-3/gamma-2,,,300 µM,,-9%
O=C(COc1cccc(Cl)c1Cl)Nc1cc(C2CC2)nn1C1CCC(F)(F)CC1,Kir3.1/Kir3.2,"thallium flux, activator",HEK293,,baseline: standard compound,52%
Cc1ccc2c(c1)C1(CC2)C(=O)NC(=N)NC1=O (stereo not shown),GABA-A receptor; alpha-1/beta-3/gamma-2,,,300 µM,,-9%
O=C(COc1ccc(Cl)cc1Cl)Nc1cc(C2CC2)nn1C1CCC(F)(F)CC1,Kir3.1/Kir3.2,"thallium flux, activator",HEK293,,baseline: standard compound,56%
CCCCC[C@H](O)/C=C/[C@H]1C(=O)C[C@H](O)[C@@H]1C/C=C\CCCC(=O)O,"Prostaglandin D2 receptor (PTGDR, Homo sapiens, UniProt Q13258)",agonist,,,,116 ± 7%

# Excerpt of the above:
Structure (SMILES),target,assay,system,setting,scale,Emax
Cc1ccc2c(c1)C1(CC2)C(=O)NC(=N)NC1=O (stereo not shown),GABA-A receptor; alpha-1/beta-3/gamma-2,,,300 µM,,-9%
